Experimental data from different studies.
± gives the spread as reported.
Cell line: HT-29

With `CNCCNC(=O)c1cn(C23CCCC(C)(CCC4C2CC4(C)C)C3)nn1` (stereo not shown) the inhibition was 72.3% (cell growth or viability, CCK-8; 50 µM).
`COc1cccc(OC)c1-c1cc(C(=O)NC2(C(=O)O)C3CC4CC(C3)CC2C4)nn1-c1ccc(C(=O)NCCNC(=O)[C@H](CCCCNC(=O)[C@H](CC(C)C)NC(=O)C2OC2C(=O)O)NC(=O)CN2CCN(CC(=O)[O-])CCN(CC(=O)[O-])CCN(CC(=O)[O-])CC2)cc1C(C)C.[177Lu+3]` (mixture of isomers) gave an internalized fraction of 1.27 ± 0.13% (concentration not given, 30 min; baseline: added activity).
For `COc1c(C)c(OC(=O)c2ccc3ccccc3c2)c(C)c(O)c1C(=O)/C=C/c1ccccc1`, the IC50 was > 50 µM (cell growth or viability, SRB; 72 h).
For `COc1ccc(C(=O)NC23CCCC(C)(CCC4C2CC4(C)C)C3)cc1` (stereo not shown), the inhibition was < 50% (cell growth or viability, CCK-8; 10 µM).
The GI50 of `CCN(C(=O)c1cc(F)ccc1Oc1nncnc1N1CCC2(C1)CN([C@H](CCCN(C)CCOC)C(C)C)C2)C(C)C` is reported as > 10 µM (cell growth or viability; 7 days).
The inhibition of `CC1CNCCN1C(=O)c1cn(C23CCCC(C)(CCC4C2CC4(C)C)C3)nn1` (stereo not shown) is reported as 75.2% (cell growth or viability, CCK-8; 50 µM).
The IC50 of `O=C1Nc2ccccc2C1(c1c[nH]c2ccccc12)c1c[nH]c2ccccc12` is reported as 12.4 µM (cell growth or viability, ATP luminescence; 24 h).
For `CN(C12CCCC(C)(CCC3C1CC3(C)C)C2)S(=O)(=O)c1ccc(N)cc1` (stereo not shown), the inhibition was 90.2% (cell growth or viability, CCK-8; 50 µM).
`CN(C)CCN1CCN(c2ccc3nc(-c4ccc5nc(-c6ccc(C(F)(F)F)cc6)[nH]c5c4)[nH]c3c2)CC1` gave a growth percent of 29.3% (SRB; 10 µM, 48 h).
With `CC(C)c1ccc(N(C)c2ccc3c(c2)OCC[C@H]3CNc2cnccc2C(=O)O)cc1` the EC50 was 0.092 µM (apoptosis, measured: caspase-3/7; 72 h; baseline: panobinostat).
The IC50 of `COC(CC1C(C)=CCC2C1(C)CCC1C(C)(C)C(O)C(O)CC12C)C(N)C(=O)O` (stereo not shown) is reported as > 10 µM (cell growth or viability, CCK-8; 72 h).
`COc1c(C)c(OS(=O)(=O)c2ccccc2)c(C)c2c1C(=O)CC(c1ccccc1)O2` (stereo not shown) has a selectivity index of > 1.1 (SRB; baseline: normal over HT-29 IC50).
`CC12CCCC(NS(=O)(=O)C3CC3)(C1)C1CC(C)(C)C1CC2` (stereo not shown) gave an inhibition of 56.4% (cell growth or viability, CCK-8; 50 µM).
For `CCCCCCCC(=O)Oc1c(C)c(OC)c2c(/C=C/c3ccccc3)c(CCCCCC)c(=O)oc2c1C`, the IC50 was > 50 µM (cell growth or viability, SRB; 72 h).
The internalized fraction of `COc1cccc(OC)c1-c1cc(C(=O)NC2(C(=O)O)C3CC4CC(C3)CC2C4)nn1-c1ccc(C(=O)N(C)CCOCCOCCN(C)C(=O)[C@H](CCCCNC(=O)[C@H](CC(C)C)NC(=O)C2OC2C(=O)O)NC(=O)CN2CCN(CC(=O)[O-])CCN(CC(=O)[O-])CCN(CC(=O)[O-])CC2)cc1C(C)C.[177Lu+3]` (mixture of isomers) is reported as 1.18 ± 0.05% (240 min, 4 h; baseline: added activity).
For `COc1c(C)c(OS(=O)(=O)c2ccccc2)c(C)c(O)c1C(=O)/C=C/c1ccccc1`, the selectivity index was 1.09 (SRB; baseline: normal over HT-29 IC50).
For `COc1cc(-n2cc3cc(F)cc(C(N)=O)c3n2)cc(Cl)c1C1CC(O)(CCO)CC2CCCC21` (stereo not shown), the IC50 was 0.24 µM (cell growth or viability, MTT; 72 h).
For `CC12CCCC(n3cc(-c4ccccc4)nn3)(C1)C1CC(C)(C)C1CC2` (stereo not shown), the inhibition was < 50% (cell growth or viability, CCK-8; 10 µM).
For `CCCC(=O)Oc1c(C)c(OC)c2c(/C=C/c3ccccc3)c(CC)c(=O)oc2c1C`, the selectivity index was > 1.62 (SRB; baseline: normal over HT-29 IC50).

Excerpt of the above:
The IC50 of `COC(CC1C(C)=CCC2C1(C)CCC1C(C)(C)C(O)C(O)CC12C)C(N)C(=O)O` (stereo not shown) is reported as > 10 µM (cell growth or viability, CCK-8; 72 h).
For `CCCC(=O)Oc1c(C)c(OC)c2c(/C=C/c3ccccc3)c(CC)c(=O)oc2c1C`, the selectivity index was > 1.62 (SRB; baseline: normal over HT-29 IC50).
For `CN(C12CCCC(C)(CCC3C1CC3(C)C)C2)S(=O)(=O)c1ccc(N)cc1` (stereo not shown), the inhibition was 90.2% (cell growth or viability, CCK-8; 50 µM).
